Measured values of several laboratories.
Each line is one published result; not all experiments were run side by side.
Technique: steady-state kinetics
B1: enzyme Y27L (Thermoplasma volcanium, UniProt Q978S7); chain MAFHGLVKYSDITVEGLPKIQYHGFIGNNRTAMLVAMNGYIDWGCLPNFNSNAVFSSILDKNKGGYFAIFPSDTTDVYVDQYYKEMTNVLVTEFVKNGKIILRLTDFMPDSEYGKISFPEVHRFVESFSEPIDITIDFKPTFNYGQDKPIIEKDQHGFIFTTDKESIGISSEFPLRKNSDRIFGNVKMEPRSSSWIIALYGIHHLFRTTDYKSYLRLQETTDYWRKWASSSSYAGAYHSMVMRSALALKVLFYEPTGLMVAAPTASLPEAIGGERNWDYRFTWIRDTAYVIEALSSIGYKYEATEFLYDMMDMITRDNRIRTIYSIDDSNDLEERIIDYEGYRGSRPVRIGNKAVDQLQIDQYGSIVRAIHSMAKAGGIVNSYLWDFVEQVMAKIEYLWKYPDSSIWEFRTEPKQYVYSKVMSWAAFDSAISMAKDLGLSAPIKQWKSIQDEIKKEVLEKGFDTDTNSFVQYYGSKNIDAALLRLPILGFIPANDEKFLGTLSRIEKELMVDGYLFKRYREDDGLKGDEGSFLMLTFWYIEDLILMKRLKKAREVLESVLEKANHLGLYSEEIDEKSGDFLGNFPQALSHLGVIRVAPKLEEALLKRTSKINS
B2: enzyme (Roseiflexus castenholzii, UniProt A7NLX0); chain MKIESITLHHIDMPLVAPFETSFGRETHRPCILIEMRADGLTGWGECVAGAGPWYAYETIGTAWHIISDFLAPMIVGQEITEPIGIVERFASVRGHPMARAAVEAAFWDLYAQARGVSLARLIGATRDRVTVGVSVGIELTLEAQLASIERFVAAGYARIKLKIKPGWDVAVVRAVRERWPDIALQVDANSAYTPDDAPIFRELDEMNLLLIEQPLHHDDIVDHARLQAQISTPICLDESIHSPEHARWALDIDACRVINIKIGRVGGLTAARQIHDLCAERGVPVWCGGMLETNVGRAVNLALAALPNFALPGDISASARYYHRDIAAPDFVLNDDSTITVPDTPGTGVAVLPERLRDVQVREVIIGKG
B3: AOC3 (Homo sapiens, UniProt Q16853); chain MNQKTILVLLILAVITIFALVCVLLVGRGGDGGEPSQLPHCPSVSPSAQPWTHPGQSQLFADLSREELTAVMRFLTQRLGPGLVDAAQARPSDNCVFSVELQLPPKAAALAHLDRGSPPPAREALAIVFFGRQPQPNVSELVVGPLPHPSYMRDVTVERHGGPLPYHRRPVLFQEYLDIDQMIFNRELPQASGLLHHCCFYKHRGRNLVTMTTAPRGLQSGDRATWFGLYYNISGAGFFLHHVGLELLVNHKALDPARWTIQKVFYQGRYYDSLAQLEAQFEAGLVNVVLIPDNGTGGSWSLKSPVPPGPAPPLQFYPQGPRFSVQGSRVASSLWTFSFGLGAFSGPRIFDVRFQGERLVYEISLQEALAIYGGNSPAAMTTRYVDGGFGMGKYTTPLTRGVDCPYLATYVDWHFLLESQAPKTIRDAFCVFEQNQGLPLRRHHSDLYSHYFGGLAETVLVVRSMSTLLNYDYVWDTVFHPSGAIEIRFYATGYISSAFLFGATGKYGNQVSEHTLGTVHTHSAHFKVDLDVAGLENWVWAEDMVFVPMAVPWSPEHQLQRLQVTRKLLEMEEQAAFLVGSATPRYLYLASNHSNKWGHPRGYRIQMLSFAGEPLPQNSSMARGFSWERYQLAVTQRKEEEPSSSSVFNQNDPWAPTVDFSDFINNETIAGKDLVAWVTAGFLHIPHAEDIPNTVTVGNGVGFFLRPYNFFDEDPSFYSADSIYFRGDQDAGACEVNPLACLPQAAACAPDLPAFSHGGFSHN
B4: ST3GAL1 K315V (Sus scrofa, UniProt Q02745); chain ELSENFKKLMKYPYRPCTCTRCIEEQRVSAWFDERFNRSMQPLLTAKNAHLEEDTYKWWLRLQREKQPNNLNDTIRELFQVVPGNVDPLLEKRLVSCRRCAVVGNSGNLKESYYGPQIDSHDFVLRMNKAPTEGFEADVGSKTTHHFVYPESFRELAQEVSMILVPFKTTDLEWVISATTTGRISHTYVPVPAKIKVKKEKILIYHPAFIKYVFDRWLQGHGRYPSTGILSVIFSLHICDEVDLYGFGADSKGNWHHYWENNPSAGAFRVTGVHDGDFESNVTTILASINKIRIFKGR
B5: enzyme (Pseudomonas aeruginosa, UniProt Q9I6F6); chain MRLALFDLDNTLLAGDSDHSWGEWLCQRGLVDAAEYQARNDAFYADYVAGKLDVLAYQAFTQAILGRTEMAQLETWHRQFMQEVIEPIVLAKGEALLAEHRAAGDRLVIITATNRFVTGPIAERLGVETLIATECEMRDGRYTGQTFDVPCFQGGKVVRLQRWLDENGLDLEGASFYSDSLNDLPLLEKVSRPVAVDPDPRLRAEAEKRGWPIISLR
B6: enzyme S253A (Arabidopsis thaliana, UniProt Q9LJK1); chain EKCQEWLERVDSVTYSRDFTKDPIFISGSNKDFKSCSVDCVMGFTSDKKPDAAFGLSHQPGTLSIIRSMESAQYYQENNLAQARRKGYDIVMTTSLSSDVPVGYFSWAEYDIMAPVQPKTEKALAAAFISNCAARNFRLQALEALMKTNVKIDSYGGCHRNRDGAVEKVEALKHYKFSLAFENTNEEDYVTEKFFQSLVAGSVPVVVGAPNIEEFAPSPDSFLHIKQMDDVKAVAKKMKYLADNPDAYNQTLRWKHEGPSDSFKALIDMAAVHSSCRLCIFVATRIREQEEKSPEFKRRPCKCTRGSETVYHLYVRERGRFDMESIFLKDGNLTLEALESAVLAKFMSLRYEPIWKKERPASLRGDGKLRVHGIYPIGLTQRQALYNFKFEGNSSLSTHIQRNPCPKFEVVFV
B7: acsA (Pseudomonas chlororaphis, UniProt Q5CD72); chain MRDYEHVVESFDYLQSATQDLHGELTALNACVECCDRHAHGEAVALYCEAQDGHAERYRFRDLQRQAARFGNFLREQGVKPGDRVAGLMPRTVELLIAILGTWRIGAVYQPLFTAFGPKAIEQRLNCSNARWIVTDPHNRPKLDDVTDCPSIVVTGGAPQNPADHHFWSALNRQADDCAPVLLDASAPFLLMCTSGTTGPAKPLEVPLSAILAFKGYMRDAIDLRADDRFWNLADPGWAYGLYYAVTGPLACGYATLFYDGPFTVESTRHIIAKYAINNLAGSPTAYRFLIAAGAEFADAVRGRLRAVSSAGEPLNPQVVRWFAEQLGVVIHDHYGQTEIGMVLCNHHGLRHPVREGSAGYAVPGYRIVVLDKAHRELPAGQPGVLAVDRERSPLCWFDGYLGMPTQAFAGRYYLSGDIVELNDDGSISFVGRNDDLITTSGYRVGPFDVESALIEHPAVVEAAVIGKPDPQRTELIKAFVVLNTPYLPSPELAEELRLHVRQRLAAHAYPREMEFVDHLPKTPSGKLQRFILRNQEIAKQQALG
B8: SCO6712 S292F/V290N (Streptomyces coelicolor, UniProt Q9XAL8); chain AKGITARTAPAGGEVRHLKMYAEKLADGQMGYGFEKGKASVPGPLIEVNEGDTLHIEFTNTMDVRASLHVHGLDYEISSDGTAMNKSDVEPGGTRTYTWRTHKPGRRDDGTWRPGSAGYWHYHDHVVGTEHGTGGIRNGLYGPVIVRRKGDVLPDATHTIVFNDMTINNRKPHTGPDFEATVGDRVEIVMITHGEYYHTFHMHGHRWADNRTGILTGPDDPSRVIDNKITGPADSFGFQIIAGEGVGAGAWMYHCHNQFHSDMGMVGLFLVKKPDGTIPGYEPHEHGGATAKSGESGEPTGGAAAHEHEH
B9: enzyme (Bacillus subtilis, UniProt O31986); chain MKLSDIYLELKKGYADSLLYSDLSLLVNIMEYEKDIDVMSIQSLVAGYEKSDTPTITCGIIVYNESKRIKKCLNSVKDDFNEIIVLDSYSTDDTVDIIKCDFPDVEIKYEKWKNDFSYARNKIIEYATSEWIYFIDADNLYSKENKGKIAKVARVLEFFSIDCVVSPYIEEYTGHLYSDTRRMFRLNGKVKFHGKVHEEPMNYNHSLPFNFIVNLKVYHNGYNPSENNIKSKTRRNINLTEEMLRLEPENPKWLFFFGRELHLLDKDEEAIDYLKKSINNYKKFNDQRHFIDALVLLCTLLLQRNNYVDLTLYLDILETEYPRCVDVDYFRSAILLVDMQNKLTSLSNMIDEALTDERYSAINTTKDHFKRILISLNIQLENWERVKEISGEIKNDNMKKEIKQYLANSLHNIEHVLKGIEV
Chain of UniProt P52961 (whole entry, looked up): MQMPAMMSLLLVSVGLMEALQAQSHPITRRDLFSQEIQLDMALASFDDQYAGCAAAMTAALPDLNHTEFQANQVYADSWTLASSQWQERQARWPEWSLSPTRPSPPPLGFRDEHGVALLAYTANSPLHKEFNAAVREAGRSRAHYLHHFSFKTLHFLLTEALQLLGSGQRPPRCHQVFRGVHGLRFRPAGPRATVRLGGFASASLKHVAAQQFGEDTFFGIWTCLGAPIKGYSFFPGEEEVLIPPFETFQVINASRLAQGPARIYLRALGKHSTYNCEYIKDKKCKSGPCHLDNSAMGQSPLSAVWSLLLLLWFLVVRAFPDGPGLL

For `B1 (enzyme Y27L)`, the Km was 46500 µM (OC[C@H]1O[C@H](O[C@H]2O[C@H](CO)[C@@H](O)[C@H](O)[C@H]2O)[C@H](O)[C@@H](O)[C@@H]1O; pH 3.7, 30 °C).
`B2 (enzyme)` gave a Km of 120 µM (O=C(O)CCC(=O)C1=CC=C[C@@H](O)[C@@H]1C(=O)O; pH 8, 25 °C).
`B3 (AOC3)` gave a Km of 674 µM (NCc1cc2c(cc1F)C(=O)N(C1CCC(=O)NC1=O)C2; pH 7.4, 37 °C, recombinant).
The Km of `ART1 (Homo sapiens, UniProt P52961)` is reported as 4100 µM (N=C(N)NCCC[C@H](N)C(=O)O; pH 7.5, 25 °C, HEPES 50 mM, with: saturating NAD+).
With `B4 (ST3GAL1 K315V)` the Km was 38.8 µM (CC(=O)N[C@H]1[C@H]([C@H](O)[C@H](O)CO)O[C@](OP(=O)(O)OC[C@H]2O[C@@H](n3ccc(N)nc3=O)[C@H](O)[C@@H]2O)(C(=O)O)C[C@@H]1O).
The Km of `B5 (enzyme)` is reported as 22 µM (N[C@H](COP(=O)(O)O)Cc1c[nH]cn1; pH 7.8, 25 °C).
For `B6 (enzyme S253A)`, the Km was 100 µM (C[C@@H]1O[C@H](OP(=O)(O)OP(=O)(O)OC[C@H]2O[C@@H](n3cnc4c(=O)[nH]c(N)nc43)[C@H](O)[C@@H]2O)[C@@H](O)[C@H](O)[C@@H]1O; pH 6.5, 30 °C).
The Km of `B7 (acsA)` is reported as 180 µM (CCCC(=O)O; pH 7).
For `enzyme (Toxoplasma gondii, UniProt S8EY38)`, the Km was 31000 µM (NCCC[C@H](N)C(=O)O; pH 8, 37 °C).
`B8 (SCO6712 S292F/V290N)` has a Km of 830 µM (CCn1c(=NN=c2sc3cc(S(=O)(=O)O)ccc3n2CC)sc2cc(S(=O)(=O)O)ccc21; pH 7, 37 °C, NaCl 150 mM, with: O2 cosubstrate).
With `enzyme (Bacteroides ovatus, UniProt A0AAN3A6N4)` the Km was 78 µM (O=[N+]([O-])c1ccc(O[C@H]2O[C@H](CO)[C@@H](O)[C@H](O)[C@H]2O)cc1; pH 6.6).
`B9 (enzyme)` has a Km of 12 µM (CC(=O)N[C@H]1[C@@H](OP(=O)(O)OP(=O)(O)OC[C@H]2O[C@@H](n3ccc(=O)[nH]c3=O)[C@H](O)[C@@H]2O)O[C@H](CO)[C@@H](O)[C@@H]1O; pH 7.5, with: SunA).

A few entries again:
`B8 (SCO6712 S292F/V290N)` has a Km of 830 µM (CCn1c(=NN=c2sc3cc(S(=O)(=O)O)ccc3n2CC)sc2cc(S(=O)(=O)O)ccc21; pH 7, 37 °C, NaCl 150 mM, with: O2 cosubstrate).
